Results pooled from the literature.
Numbered parts are unrelated; each lists some results of a single study. Numbers after ± are the reported error.

Study 1
Target: HLA class I histocompatibility antigen, A alpha chain, allele A*68:01 (Homo sapiens, UniProt P04439)
Effect on: binding
Action: competitor
| SMILES | IC50 [µM] |
| --- | --- |
| CC[C@H](C)[C@H](NC(=O)[C@H](CCCNC(=N)N)NC(=O)[C@@H]1CCCN1C(=O)[C@H](C)N)C(=O)N[C@H](C(=O)N[C@@H](Cc1ccccc1)C(=O)NCC(=O)NCC(=O)N1CCC[C@H]1C(=O)O)[C@@H](C)O | 6.17 |
| CC(C)[C@H](NC(=O)[C@H](CC(N)=O)NC(=O)[C@H](CO)NC(=O)CNC(=O)[C@@H](N)[C@@H](C)O)C(=O)N[C@@H](Cc1ccccc1)C(=O)N[C@@H](CCC(N)=O)C(=O)N[C@H](C(=O)N[C@@H](CCCNC(=N)N)C(=O)O)[C@@H](C)O | 0.018 |
| CC[C@H](C)[C@H](NC(=O)[C@H](CC(N)=O)NC(=O)[C@@H](NC(=O)[C@@H](NC(=O)[C@@H](NC(=O)[C@@H](N)CO)[C@@H](C)O)[C@@H](C)O)[C@@H](C)O)C(=O)N[C@H](C(=O)N[C@H](C(=O)N[C@@H](CCCNC(=N)N)C(=O)O)[C@@H](C)O)C(C)C | 0.018 |
| CC[C@H](C)[C@H](NC(=O)[C@@H](NC(=O)[C@@H](N)CCCNC(=N)N)[C@@H](C)O)C(=O)N[C@@H](CCCCN)C(=O)N[C@H](C(=O)N[C@@H](Cc1ccccc1)C(=O)N[C@H](C(=O)N[C@H](C(=O)N[C@H](C(=O)O)C(C)C)[C@@H](C)O)[C@@H](C)O)C(C)C | 13.5 |

Mixed results
| Substance | target or system | assay | system | conditions | measurement | result |
| --- | --- | --- | --- | --- | --- | --- |
| CC(C)Nc1nc2cc(Cl)c(Cl)cc2n1[C@H]1O[C@@H](CO)[C@H](O)[C@@H]1O | SARS-CoV-2 |  | Vero C1008, Omicron BA.5 | 48 h | EC90 | 12.2 ± 0.327 µM |
| pdtaS C53A (Mycobacterium tuberculosis) | itself | MST |  |  | Kd | 0.445 µM |
| COc1ccc(-c2cc(=O)c3c(OC)cc(OC)cc3o2)cc1 | SARS-CoV-2 | virucidal activity |  | virus pre-treatment | EC50 | 438 ± 59.3 µM |
| pdtaS H303Q (Mycobacterium tuberculosis) | pdtaS (Mycobacterium tuberculosis) | MST |  |  | Kd | 1.44 µM |
| COc1ccc(C[C@@H]2c3cc(Oc4cc(C[C@@H]5c6cc(OC)c(OC)cc6CCN5C)ccc4O)c(OC)cc3CCN2C)cc1 | SARS-CoV-2 | virucidal activity |  | virus pre-treatment | EC50 | 36 ± 8.37 µM |
